# Measurements collected from several papers.
# “And” joins repeats or separate records; there may be more than shown. Numbers after ± are the reported error.
# B1: recombinant human GDNF; sequence looked up; chain SPDKQMAVLPRRERNRQAAAANPENSRGKGRRGQRGKNRGCVLTAIHLNVTDLGLGYETKEELIFRYCSGSCDAAETTYDKILKNLSRNRRLVSDKVGQACCRPIAFDDDLSFLDDNLVYHILRKHSAKRCGCI
# B2: human SCYL2; sequence looked up; chain MESMLNKLKSTVTKVTADVTSAVMGNPVTREFDVGRHIASGGNGLAWKIFNGTKKSTKQEVAVFVFDKKLIDKYQKFEKDQIIDSLKRGVQQLTRLRHPRLLTVQHPLEESRDCLAFCTEPVFASLANVLGNWENLPSPISPDIKDYKLYDVETKYGLLQVSEGLSFLHSSVKMVHGNITPENIILNKSGAWKIMGFDFCVSSTNPSEQEPKFPCKEWDPNLPSLCLPNPEYLAPEYILSVSCETASDMYSLGTVMYAVFNKGKPIFEVNKQDIYKSFSRQLDQLSRLGSSSLTNIPEEVREHVKLLLNVTPTVRPDADQMTKIPFFDDVGAVTLQYFDTLFQRDNLQKSQFFKGLPKVLPKLPKRVIVQRILPCLTSEFVNPDMVPFVLPNVLLIAEECTKEEYVKLILPELGPVFKQQEPIQILLIFLQKMDLLLTKTPPDEIKNSVLPMVYRALEAPSIQIQELCLNIIPTFANLIDYPSMKNALIPRIKNACLQTSSLAVRVNSLVCLGKILEYLDKWFVLDDILPFLQQIPSKEPAVLMGILGIYKCTFTHKKLGITKEQLAGKVLPHLIPLSIENNLNLNQFNSFISVIKEMLNRLESEHKTKLEQLHIMQEQQKSLDIGNQMNVSEEMKVTNIGNQQIDKVFNNIGADLLTGSESENKEDGLQNKHKRASLTLEEKQKLAKEQEQAQKLKSQQPLKPQVHTPVATVKQTKDLTDTLMDNMSSLTSLSVSTPKSSASSTFTSVPSMGIGMMFSTPTDNTKRNLTNGLNANMGFQTSGFNMPVNTNQNFYSSPSTVGVTKMTLGTPPTLPNFNALSVPPAGAKQTQQRPTDMSALNNLFGPQKPKVSMNQLSQQKPNQWLNQFVPPQGSPTMGSSVMGTQMNVIGQSAFGMQGNPFFNPQNFAQPPTTMTNSSSASNDLKDLFG
# B3: human RAB1C; sequence looked up; chain MNPGYDCLFKLLLIGDSGVGKSCLLLRFADDPYTESYISTIGVDFKIQTIELDGKTIKLQIWDTAGQERFWTITSSYYRGAHGFLVVYDVTDQESYANVKQWLQEIDRHASENVNKLLVGNKSDLTTKKVVDNTTAKEFADSLGIPFLETSAKNATNVEQAFMTMAAEIKKQMGPGAASGGERPNLKIDSTPVKPAGGGCC
# B4: interferon gamma; sequence looked up; chain QDPYVKEAENLKKYFNAGHSDVADNGTLFLGILKNWKEESDRKIMQSQIVSFYFKLFKNFKDDQSIQKSVETIKEDMNVKFFNSNKKKRDDFEKLTNYSVTDLNVQRKAIHELIQVMAELSPAAKTGKRKRSQMLFRG
Substance,tested on,assay,system,conditions,how to read,quantity,value
Pam2CSK4,,,"APP/PS1 mouse, cortex","local injection, dose not given, unit not given",reference: injected over adjacent side,OC-positive amyloid level,0.872 and 1.16
B1 (recombinant human GDNF),,"cell counting on sections, measured: tyrosine hydroxylase","rat, 6-OHDA lesion model, substantia nigra pars compacta, lesioned side",3 µg/24 h,,TH-immunoreactive cell count,383 ± 61.2
heparin sodium,,,human,"intravenous infusion, 8 IU/kg/h, day 1 to 6",,aPTT Emax,39.6 s
semaglutide,,,"Wistar rat, male, diet-induced obese","subcutaneous, dose not given, 14 days",reference: vehicle,body weight reduction,-8.5%
B2 (human SCYL2),PP6C (human),"co-immunoprecipitation, IP-MS",CYB5R4 knockout cells,concentration not given,reference: CYB5R4 knockout over parental,log2 fold change,-0.89
cotadutide,,"metabolomics, measured: hepatic urea","ob/ob mice on AMLN diet, NASH model, liver",dose not given,,metabolite level,1.38 ± 0.13 scaled intensity
B3 (human RAB1C),CYB5R4 knockout human cells,"PP6 interaction, 3xFLAG-PP6C IP-MS",,concentration not given,reference: CYB5R4 KO over parental,log2 fold change,-0.1
difelikefalin,,,Japanese haemodialysis patients with pruritus,"intravenous, 1.0 µg/kg, 8 weeks",,PGIC very much worse,0%
liraglutide,,,"Wistar rat, female, diet-induced obese, blood, fasted","subcutaneous, dose not given, after 4 weeks treatment",,serum insulin,14.7 ± 2 ng/mL
maraviroc,,"Western blot, measured: GSK-3β phospho-Tyr216","mice, NSG hu-PBL, HIV-infected, somatosensory cortex","i.p., 120 mg/kg twice daily, 3 weeks post infection, normalised to total GSK-3β","reference: HIV-infected untreated mice, decrease",protein level,5.2 fold
B4 (interferon gamma),,proteinuria inducer,FVB mice,"dose not given, 24 h",,urine albumin/creatinine ratio,14.4 and 27.3 and 20.6 and 12.2 and 13.3 and 17.3 and 27 and 13.7

# Some of these lines once more:
Substance,tested on,assay,system,conditions,how to read,quantity,value
maraviroc,,"Western blot, measured: GSK-3β phospho-Tyr216","mice, NSG hu-PBL, HIV-infected, somatosensory cortex","i.p., 120 mg/kg twice daily, 3 weeks post infection, normalised to total GSK-3β","reference: HIV-infected untreated mice, decrease",protein level,5.2 fold
